Measurements gathered from unrelated publications.
Each numbered part is a random draw from the data of one study; scales do not carry over between parts. Substitutions count along the parent as printed.

Set 1 — target: CCNE2, cyclin fold, Cln2 fusion (human); method: yeast growth competition, sequencing; sample: yeast; notes: weak parent motif; relative to: not given; direction: higher = stronger binding; endpoint: normalised enrichment score
Starting sequence: DBF4B docking peptide (human); LGYLYLLLTQSLW; partner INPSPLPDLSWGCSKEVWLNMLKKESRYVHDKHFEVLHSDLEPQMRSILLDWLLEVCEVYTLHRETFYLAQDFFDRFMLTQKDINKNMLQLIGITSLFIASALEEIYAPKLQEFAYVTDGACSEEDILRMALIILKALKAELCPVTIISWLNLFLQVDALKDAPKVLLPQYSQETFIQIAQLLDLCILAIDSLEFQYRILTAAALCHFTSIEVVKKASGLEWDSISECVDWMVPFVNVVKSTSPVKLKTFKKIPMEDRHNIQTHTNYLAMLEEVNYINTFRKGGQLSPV
LGYLALLLTQSLW [Y5A]: 1.31
LGYLYLLLTQALW [S11A]: 0.777
AGYLYLLLTQSLW [L1A]: 1.45
LGYLYLALTQSLW [L7A]: 0.627
LGYLYALLTQSLW [L6A]: 0.425
LGALYLLLTQSLW [Y3A]: 0.665

Set 2 — method: protein-binding microarray; molecule type: hairpin DNA; sample: in vitro; tested at: not given; relative to: not given; direction: higher = stronger binding; endpoint: median fluorescence; all sequences stand within: GAGGCCG … CGGCCTCACACTC
Target: Cyclic AMP-dependent transcription factor ATF-1, full length (ATF1, Homo sapiens, UniProt P18846, residues 1-271)
Notes: whole hairpin DNA, median over replicate spots
Construct (chain): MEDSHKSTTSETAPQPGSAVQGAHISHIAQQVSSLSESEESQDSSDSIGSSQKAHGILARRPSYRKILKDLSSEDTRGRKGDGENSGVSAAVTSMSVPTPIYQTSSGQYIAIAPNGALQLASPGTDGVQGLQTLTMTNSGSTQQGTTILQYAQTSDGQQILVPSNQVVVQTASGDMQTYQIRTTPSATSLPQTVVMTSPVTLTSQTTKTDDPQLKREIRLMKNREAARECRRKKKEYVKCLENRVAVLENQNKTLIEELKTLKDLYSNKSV
GATGACGTCTGCCTCCTGGCAGACGTCATC: 7770 a.u.
CGGACGTCGTGCCTCCTGGCACGACGTCCG (5mC at 8 15 29 35): 3990 a.u.
GATGACGTCGGCCTCCTGGCCGACGTCATC (5mC at 28): 12500 a.u.
CCGACGTCGTGCCTCCTGGCACGACGTCGG (5mC at 8 9 15 29 35): 4460 a.u.
ACGACGTCCGGCCTCCTGGCCGGACGTCGT (5mC at 9 15 35): 3400 a.u.
GCTGACGTCGGCCTCCTGGCCGACGTCAGC: 5840 a.u.
GATGACGCCAGCCTCCTGGCTGGCGTCATC (5mC at 15): 11900 a.u.
GCTGACGTCAGCCTCCTGGCTGACGTCAGC (5mC at 16): 6750 a.u.
GCTGACGTCAGCCTCCTGGCTGACGTCAGC (5mC at 34): 5570 a.u.
GCTGATGTCAGCCTCCTGGCTGACATCAGC: 3530 a.u.
GATGACGTCCGCCTCCTGGCGGACGTCATC (5mC at 17): 7690 a.u.
ATGACGTCGTGCCTCCTGGCACGACGTCAT (5mC at 15 29 35): 4340 a.u.
GATGCCGTCAGCCTCCTGGCTGACGGCATC: 3650 a.u.
GATCGCGTCAGCCTCCTGGCTGACGCGATC (5mC at 11 33): 5420 a.u.
GCTGACGCGAGCCTCCTGGCTCGCGTCAGC (5mC at 15 29): 5550 a.u.
GCTGACGCCAGCCTCCTGGCTGGCGTCAGC (5mC at 15): 6870 a.u.
CCGACGTCGTGCCTCCTGGCACGACGTCGG (5mC at 9 15 29 35): 4490 a.u.

Set 3 — method: RNA Bind-n-Seq; molecule type: RNA; sample: in vitro; tested at: 200 nM; notes: whole 134-nt RNA, ends assumed; together with: 150 mM LiCl; relative to: input library; direction: higher = stronger binding; endpoint: log2 enrichment; all molecules: 7-deaza-guanosine replaces G
Target: Fragile X messenger ribonucleoprotein 1, C-terminal low-complexity region (Fmr1, Mus musculus, UniProt P35922)
All sequences stand within: GGGAGUUCUACAGUCCGACGAUC … UGGAAUUCUCGGGUGUCAAGG
GUCCUGUGCUACACAUCGUAUGUACCGAAUCAAAUUUAAACCCCCAAACCCCCCCAAAAAAGUAUUAUGUUACGCCGUUCGGAUCUGCAC: 1.22
CAAGUCCUGUGCUACACAUCGUAUGUACCGAAUCGGGGUUUGGGUUUGGUUUGGGAAAGUAUUAUGUUACGCCGUUCGGAUCUGCACUUC: -0.826
UCAAGUCCUGUGCUACACAUCGUAUGUACCGAAUCGGUUUGGUUUUUUUGGAGGAAAGUAUUAUGUUACGCCGUUCGGAUCUGCACUUCC: -0.0321
UUGGCGCAUGCGCCUAAAGCUGACGGGUUUGAAAUGGCUUCGAUGUUAGCCGGGACCCGACUCAGGUGAAGGUCUGGUCCCCGUAGUUGG: -1.37
UAACUUUAGAGGAGGAUCUGAUGGAUAUGGUAGUGGACGUGGAUUUGGGGAUGGCUAUAAUGGGUAUGGAGGAGGACCUGGAGGUGGCAA: 0.653
CUCAAGUCCUGUGCUACACAUCGUAUGUACCGAAUCGGUUGGGGUUGGUUGGGAAAGUAUUAUGUUACGCCGUUCGGAUCUGCACUUCCA: 0.0532
CCUGUGCUACACAUCGUAUGUACCGAAUCGGUUUUUUGGGGUUUUUUGGGGUUUUUUGGGGAAAGUAUUAUGUUACGCCGUUCGGAUCUG: -0.345
UGGCCCUGGUGGCAUGCGGGGAGGAAGAGGUGGCCUCAUGGGUCGUGGUGGUCCCGGUGGAAUGUUCAGAGGUGGCCGUGGUGGAGACAG: -0.0385
GUGCUACACAUCGUAUGUACCGAAUCGGGGCCCCCCCGGGGCCCCCCCGGGGCCCCCCCGGGGAAAGUAUUAUGUUACGCCGUUCGGAUC: -2.62
AGUGGGUUUGUUGAAGCAGUUGCUGGUGCAACAGCUAGGUUUGACUGAGAAGAGCGUUCAGGAAGACUGGCAACAUUUCCCAAGAUACAG: -3.22
AGUCCUGUGCUACACAUCGUAUGUACCGAAUCGGUUUUGGGUUUUGGGGUUUUGGGGAAAGUAUUAUGUUACGCCGUUCGGAUCUGCACU: -1.25

Set 4 — method: protein binding microarray; molecule type: double-stranded DNA, one strand shown; sample: in vitro; tested at: not given; relative to: not given; direction: higher = stronger binding; endpoint: E-score
Target: Histone acetyltransferase KAT6A, winged helix 1, GST fusion (KAT6A, Homo sapiens, UniProt Q92794, residues 1-85)
Notes: 8-mer, flanks averaged, mean of 2 arrays, mostly near background
Construct (chain): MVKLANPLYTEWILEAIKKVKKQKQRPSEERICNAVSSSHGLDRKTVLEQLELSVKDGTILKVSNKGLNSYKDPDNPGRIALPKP
AACAACCT: -0.271
TAGGGGGA: -0.0902
CAGACGTA: -0.11
ACAAGTCT: -0.126
AACGTGAT: 0.0145
ATAAGTAT: -0.0703
GCACGTCC: 0.0371
TCCGAACA: 0.0487
CACGTATG: -0.0803
ACAAGTTC: -0.111
GCCACGCC: 0.168
AGCTACCC: -0.156
ACCTTTGC: -0.111
GCTTCATA: -0.0185
CCTATGGC: 0.00927
AGTGTTAT: -0.0964
GCTTAGCC: 0.186
CTATGTTC: -0.0577
GGGTAGTA: 0.00908
ATGTAGCC: -0.0138

Set 5 — method: protein-binding microarray; molecule type: double-stranded DNA, one strand shown; sample: in vitro; tested at: 940 nM top; notes: 60-bp whole probe; together with: salmon DNA 0.4 mg/ml; relative to: random background probes; direction: higher = stronger binding; endpoint: fitted relative affinity; all sequences stand within: GCCTAGCAC … GTCTTGATTCGCTTGACGCTGCTG
Target: Interferon regulatory factor 5, full length, phosphomimetic (IRF5, Homo sapiens, UniProt Q13568-2, residues 1-514, S451D/S453D/S456D/S462D)
TCATTTCTAATGTTTTTTACTGTGCTA: 0.432 z-score
GACGGTTTCGGGTAGCGGGACGTGCTA: 9.22 z-score
GACGGGCTGGGGACTGGGGACGTGCTA: -0.0463 z-score
GACGATTTCGGGACTGCAGACGTGCTA: 0.0434 z-score
GACGGTCTCGGTTTCGTGACGTGCTAG: 4.74 z-score
GATGGACTGGACACTGGGGACGTGCTA: -0.41 z-score
TTGGGACTGCTACTGCTTTAGTGCTAG: -0.443 z-score
TCACTTTTATGCTCTTTCACTGTGCTA: 1.87 z-score
GACGGTCTCAGTTTCGGGACGTGCTAG: 5.04 z-score
ATAGATATCGGGTTTCGATTAGTGCTA: 5.05 z-score
GACGGTTTCGCTTTCGGGACGTGCTAG: 9.39 z-score
CCAGAGTCCTGTTTGATAATGTGCTAG: -0.189 z-score
TCAAGAATAATTTTTTAGACTGTGCTA: -0.263 z-score
GACGGTATCGGTACCGGGACGTGCTAG: 9.05 z-score
CTCAGGTAATATTTCCTGCTGTGCTAG: -0.00401 z-score
TTAGGCCTCCTTTTCCTTTAGTGCTAG: 0.297 z-score
GGTCCTCTGGGCTGTTTGGCCGTGCTA: -0.515 z-score
TTGGGTTTCGACACTGGGTTAGTGCTA: 6.62 z-score

Set 6 — method: protein-binding microarray; molecule type: double-stranded DNA, one strand shown; sample: in vitro; tested at: not given; direction: higher = stronger binding; endpoint: E-score
Target: Protein max, full length (MAX, Homo sapiens, UniProt P61244-2, residues 1-151)
Notes: k-mer, scored over probes, only values ≥0.25
CAGCATGG: 0.458
ACGAGGGG: 0.354
AACACCTG: 0.366
ACCGCGCG: 0.292
CCCGCACG: 0.359
ACATGCAG: 0.344
AGGGCACG: 0.337
AATGTGCT: 0.287
CACGCGCG: 0.439
CATGGAGC: 0.265
CACGCCCG: 0.323
AACTCATG: 0.33
CATGCACG: 0.396
ATGTGATC: 0.365

For quick reference, copied from above (set 5):
GATGGACTGGACACTGGGGACGTGCTA: -0.41 z-score
TTGGGACTGCTACTGCTTTAGTGCTAG: -0.443 z-score
TCACTTTTATGCTCTTTCACTGTGCTA: 1.87 z-score
GACGGTCTCAGTTTCGGGACGTGCTAG: 5.04 z-score
ATAGATATCGGGTTTCGATTAGTGCTA: 5.05 z-score
GACGGTTTCGCTTTCGGGACGTGCTAG: 9.39 z-score
CCAGAGTCCTGTTTGATAATGTGCTAG: -0.189 z-score
TCAAGAATAATTTTTTAGACTGTGCTA: -0.263 z-score
GACGGTATCGGTACCGGGACGTGCTAG: 9.05 z-score
CTCAGGTAATATTTCCTGCTGTGCTAG: -0.00401 z-score
